Measurements pooled from the literature.
Parts stem from different laboratories: compare values within a part only. Substitutions count along the parent as printed.

Sample 1
Target: PABPC1L2, full length, GST fusion (mouse, UniProt A0ABA7IW68)
Technique: RNAcompete
Form: RNA
Sample: in vitro
Concentration: 20 nM
Notes: 7-mer, probes averaged, single round
Relative to: mean of 7-mers
Reading: higher = stronger binding
Construct (chain): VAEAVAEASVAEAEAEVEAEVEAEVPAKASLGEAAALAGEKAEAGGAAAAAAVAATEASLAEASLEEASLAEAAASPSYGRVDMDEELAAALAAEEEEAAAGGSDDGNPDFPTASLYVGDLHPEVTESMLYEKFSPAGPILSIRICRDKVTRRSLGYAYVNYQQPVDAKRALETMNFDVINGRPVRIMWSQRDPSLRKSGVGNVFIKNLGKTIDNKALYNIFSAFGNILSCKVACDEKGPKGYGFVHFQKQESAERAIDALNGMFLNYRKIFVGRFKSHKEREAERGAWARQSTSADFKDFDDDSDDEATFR
| Oligonucleotide | 7-mer Z-score |
| --- | --- |
| CCGGUUU | -0.42 |
| UGGUACA | -0.144 |
| AUAGAUU | -0.0844 |
| UUCAGGU | -0.304 |
| ACAAUGU | -0.0881 |
| CUUCGCU | -0.416 |
| GCGUUCU | -0.293 |
| GGGGCUU | 0.173 |
| GGGUUCC | -0.0935 |
| CGAACUC | -0.233 |
| GGCGUUA | -0.0464 |

Sample 2
Target: Ras GTPase-activating protein-binding protein 1, full length (G3BP1, Homo sapiens, UniProt Q13283)
Chain of UniProt Q13283 (whole entry, looked up): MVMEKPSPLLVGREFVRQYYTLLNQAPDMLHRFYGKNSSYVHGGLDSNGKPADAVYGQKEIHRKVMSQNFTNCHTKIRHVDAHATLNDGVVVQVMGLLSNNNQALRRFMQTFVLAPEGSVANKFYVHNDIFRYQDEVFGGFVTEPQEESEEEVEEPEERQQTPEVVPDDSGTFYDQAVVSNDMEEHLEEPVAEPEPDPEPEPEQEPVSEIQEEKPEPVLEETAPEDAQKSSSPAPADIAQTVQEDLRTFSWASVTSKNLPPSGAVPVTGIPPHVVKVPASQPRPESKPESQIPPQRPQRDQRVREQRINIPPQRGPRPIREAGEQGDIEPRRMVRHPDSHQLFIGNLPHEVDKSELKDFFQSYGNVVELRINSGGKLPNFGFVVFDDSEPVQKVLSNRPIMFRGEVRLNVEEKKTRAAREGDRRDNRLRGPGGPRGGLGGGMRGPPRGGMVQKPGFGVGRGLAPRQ
Technique: RNA Bind-n-Seq
Form: RNA
Sample: in vitro
Concentration: 200 nM
Notes: whole 134-nt RNA, ends assumed
With: 150 mM KCl
Relative to: input library
Reading: higher = stronger binding
All sequences stand within: GGGAGUUCUACAGUCCGACGAUC … UGGAAUUCUCGGGUGUCAAGG
| Oligonucleotide | log2 enrichment |
| --- | --- |
| CAAGUCCUGUGCUACACAUCGUAUGUACCGAAUCGGGGAAAGGAAAGGGGAAAGGGAAAGUAUUAUGUUACGCCGUUCGGAUCUGCACUU | 0.364 |
| UGGCCCUGGUGGCAUGCGGGGAGGAAGAGGUGGCCUCAUGGAUCGUGGUGGUCCCGGUGAAAUGUUCAGAGGUGGCCGUGGUGGAGACAG | -0.103 |
| CCUGUGCUACACAUCGUAUGUACCGAAUCGGGGCCCCCCGGGCCCCCCGGGCCCCCCGGGAAAGUAUUAUGUUACGCCGUUCGGAUCUGC | -0.667 |
| CUGUGCUACACAUCGUAUGUACCGAAUCGGGUUUUUUUGGGGUUUUUUUGGGUUUUUUUGGGAAAGUAUUAUGUUACGCCGUUCGGAUCU | -0.796 |
| GGCAAGAGGAGGAACGACGUAGAAGAGAGGAAGAGAUGAUGAUUCGUCAACGUGAGAUGGAAGAACAAAUGAGGCGCCAAAGAGAGGAAA | 1.2 |
| CUCAAGUCCUGUGCUACACAUCGUAUGUACCGAAUCGGUUUGGAAAGGUUUGGAAAGUAUUAUGUUACGCCGUUCGGAUCUGCACUUCCA | -0.577 |
| CAAGUCCUGUGCUACACAUCGUAUGUACCGAAUCGGUGGUUUUUUUGGAAAAAGGAAAGUAUUAUGUUACGCCGUUCGGAUCUGCACUUC | -0.883 |
| CUGUGCUACACAUCGUAUGUACCGAAUCGGGAAAAAAAGGGGAAAAAAAGGAAAAAAAGGGGAAAGUAUUAUGUUACGCCGUUCGGAUCU | -0.731 |
| CACAGACAACACGCACCCACACAGACACAGAGGGAAGGGGUUGGGAUGGGGACAGGGUGAACAGCAGGGCGGGGUAGGACCCCAGCCCCU | 1.74 |
| CCUGUGCUACACAUCGUAUGUACCGAAUCGGGGCCCCCCCGGGCCCCCCCGGCCCCCCCGGAAAGUAUUAUGUUACGCCGUUCGGAUCUG | -0.238 |
| GCAGGAAGUAAAAACAAAUGGAAAUGCUUCGGAUAGUGGCAGGGGUGGGGGUUGCUAAGGAAAGGGUGGGAUGGGAGUGGGUACAGAGUU | 1.26 |
| GUCCUGUGCUACACAUCGUAUGUACCGAAUCGGAAAAAGGAAAAAAAGGAAAAAAAGGAAAGUAUUAUGUUACGCCGUUCGGAUCUGCAC | -0.933 |
| ACCAUGCAGGUGGGCAUCUUUGGGAAGUGGGGCCAGGGGGGGAUAGGGAGGGGGGUAACACUUUGGGAACAGGUGGUCCCAGGUCGUUUC | 1.3 |
| AGUCCUGUGCUACACAUCGUAUGUACCGAAUCGGCCCCCGGGGCCCCCGGCCCCCGGAAAGUAUUAUGUUACGCCGUUCGGAUCUGCACU | -0.858 |

Sample 3
Target: RNA binding protein fox-1 homolog 2, RRM domain, GST-SBP tag (RBFOX2, Homo sapiens, UniProt O43251-10, residues 100-194)
Technique: RNA Bind-n-Seq
Form: RNA
Sample: in vitro
Concentration: 365 nM
Notes: natural RNA segment, single round, ends assumed
Relative to: no-protein control
Reading: higher = stronger binding
All sequences stand within: GGGAGUUCUACAGUCCGACGAUC … UGGAAUUCUCGGGUGCCAA
Construct (chain): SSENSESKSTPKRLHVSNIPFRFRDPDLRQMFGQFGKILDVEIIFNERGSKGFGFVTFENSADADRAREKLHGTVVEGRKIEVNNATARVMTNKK
| Oligonucleotide | RBNS enrichment (R) |
| --- | --- |
| CUCAUAAGUAAAUGUCUUCAUGUUGAUGUGUCCGUGAAAGUUGUGAUCUGUUGUAAUAUCAGUUACAGUGGCAGUAUUGACAAUAAGAAACAGUUUAACAGAAAAAUGAA | 0.394 |
| CAUGGCCACUUCAAAGUGAAGCCAGCAAAGUGAUAAUACUUUAUCAUUUAGUAUUAUCAUAAAGUAUUAAUACUUUGUCAUAAAGUCCUCCUUGAGCCCAGGGACCAUGG | 0.28 |
| AUACUUUCUAUUUUUUUGGUCAAAUCAUGUUUAGAAACUUUGGAUGAGUUAAGAAGUCUUAAGUAUGCAGGCGUUUACGUGAUUGUGCCAUUCCAAAGUGCAUCAGAACU | 2.26 |
| GUGUUUCCAGGCACUUAGGACACCCUUCCCCACGUUGCCAUCUUACUGACAGUUCAAAUGACUCUCCUUUUUUGUUCGUUAGUAACAAUCUUCAUUUGACACCUUAAUAC | 0.622 |
| GAAUUUAUGCUUUCUCAAGAUGUUGAACAUGAGCGUCUCUUUGACCUCAUUCAGAAAAUGUUGGAGUAUGAUCCAGCCAAAAGAAUUACUCUCAGAGAAGCCUUAAAGCA | 1.07 |
| ACAUGGAGUGGAGAUUGGAUCAUUUAACAAUAUAACAAAACUUCCUGAUUUGAUUUUACGUAUCUUCUAUCUACGCCCUUCCUGUGCCUGUGACUCUCCCCAAAUUGCCC | 0.359 |
| AUAUAUAUGCUAUAUAUGGACACACUAUUUUCUUAUGUCAUCUAUGGCAUUUUUUUAUCUGUAUACUUUUUGAUGUGGUUGAUUGUUUUUAACAUGCUAAAAGUAAUCCG | 0.609 |
| CAGAACUCAUAAGAGUGACAUAGUCAGCUGCUGACGGCACCUCAGCCACGCCACUCUUACUCAGUUCAGUGGGUGUGCUUGCGUGGUAGGAUGUGGUGCAGCCCUCUCUA | 0.285 |
| CAUAGUUAGAAUCACUAUGCAUCUGUCUGUCCACACAGGAAGUGCUAUAGCUCUCAAGUGCUCUAGAGGCAGUUGGAAAGGAAGGAAUGCAUGCUUAUGUGAGCAGCUGG | 1.08 |
| UUGUAGUCAGCAACCAUUUUACUUUGUGUGUUUUUUCACGACUGAACACCAGCUGCUAUCAAGCAAGCUUAUAUCAUGUAAAUUAUAUGAAUUAGGAGAUGUUUUGGUAA | 0.286 |
| GAAAAUUGCAGGCUUGGUGCAGAGCGCUCUGUCAUCUUCACCCUGGGAUGUAGGAUUACCUAGCUAUGGUAAAGGAUUGCCACAGCAAACUGUGACACUGUGUAAUGAGC | 1.16 |
| UGAUUUAAACUCUGGAGUCAAAGCUAGUGUGUGUGUCUGUCUUUGCUCCUGCUAAGACAUGGAAACAAGUAUUGGAACCUCCAGAGUGUUUAAAUGGCUAUUGAAAUUUA | 0.325 |

Sample 4
Target: Sal-like protein 4, full length isoform B (SALL4, Homo sapiens, UniProt Q9UJQ4-2, residues 1-616)
Technique: universal PBM
Form: double-stranded DNA, one strand shown
Sample: in vitro
Concentration: not given
Notes: 8-mer, flanks averaged, mean of replicates
Reading: higher = stronger binding
Construct (chain): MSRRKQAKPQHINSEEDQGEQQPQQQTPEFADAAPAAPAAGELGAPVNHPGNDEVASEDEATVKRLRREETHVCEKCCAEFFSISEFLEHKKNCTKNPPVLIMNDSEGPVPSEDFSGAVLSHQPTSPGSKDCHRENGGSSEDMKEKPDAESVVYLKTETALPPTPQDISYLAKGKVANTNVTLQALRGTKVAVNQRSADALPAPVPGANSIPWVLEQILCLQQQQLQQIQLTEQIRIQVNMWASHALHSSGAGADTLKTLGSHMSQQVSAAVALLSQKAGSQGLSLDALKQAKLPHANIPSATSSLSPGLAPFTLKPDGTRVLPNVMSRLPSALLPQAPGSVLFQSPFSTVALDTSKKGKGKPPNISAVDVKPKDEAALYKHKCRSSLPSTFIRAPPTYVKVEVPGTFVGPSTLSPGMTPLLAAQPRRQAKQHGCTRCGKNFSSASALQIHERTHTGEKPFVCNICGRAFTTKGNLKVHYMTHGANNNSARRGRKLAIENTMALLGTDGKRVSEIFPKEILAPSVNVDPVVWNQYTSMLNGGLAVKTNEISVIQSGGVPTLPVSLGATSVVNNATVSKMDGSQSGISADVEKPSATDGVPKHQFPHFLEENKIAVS
| Oligonucleotide | E-score |
| --- | --- |
| AGTGTCTG | 0.00234 |
| CGCATTTC | -0.0819 |
| ATGTTGGG | -0.0769 |
| ATTAAGTA | 0.333 |
| ACCAGTTG | -0.114 |
| TGAACGCA | 0.143 |
| TCGAGGAA | -0.0548 |
| ACGTGCCA | -0.135 |
| GGTTCTAA | 0.029 |
| AGCTAACC | -0.297 |
| AGAGACAT | 0.139 |
| CTGCCACA | -0.152 |
| CAATGCGA | -0.0179 |
| AAACCACT | 0.0748 |

Sample 5
Target: CCNF, cyclin fold, Cln2 fusion (human)
Technique: yeast growth competition, sequencing
Sample: yeast
Notes: strong parent motif
Relative to: not given
Reading: higher = stronger binding
Starting sequence: CDC25A docking peptide (human); PPHRRRLLFACSP
| Change | normalised enrichment score |
| --- | --- |
| PRHRRRLLFACSP [P2R] | 7.07 |
| PPHRRRLPFACSP [L8P] | 1.14 |
| PPHRYRLLFACSP [R5Y] | 1.08 |
| PPHRRRLLFAMSP [C11M] | 7.78 |
| PPHRRRLLFAVSP [C11V] | 8.55 |
| PPHRRRLLFFCSP [A10F] | 7.63 |
| PPHRRRYLFACSP [L7Y] | 1.96 |
| PPHRRRLLFHCSP [A10H] | 7.79 |
| PPHRRRLYFACSP [L8Y] | 8.66 |
| PPDRRRLLFACSP [H3D] | 2.76 |
| PPHRRRLLPACSP [F9P] | 0.956 |
| PPHRRRLLEACSP [F9E] | 1.59 |
| PPHRGRLLFACSP [R5G] | 2.24 |
| PPHRRRLLFACMP [S12M] | 7.06 |
| PPHERRLLFACSP [R4E] | 1.47 |
| WPHRRRLLFACSP [P1W] | 7.72 |
| PPHRKRLLLACSP [R5K F9L] | 0.863 |
| PPHRARLLFACSP [R5A] | 1.52 |
| PPHRRRLLFACSQ [P13Q] | 6.82 |
| PVHRRRLLFACSP [P2V] | 6.74 |
| PPHRMRLLFACSP [R5M] | 2.13 |
| PPHRRRLLFAWSP [C11W] | 6.56 |

Repeated from above (sample 4):
| Oligonucleotide | E-score |
| --- | --- |
| AGTGTCTG | 0.00234 |
| CGCATTTC | -0.0819 |
| ATGTTGGG | -0.0769 |
| ATTAAGTA | 0.333 |
| ACCAGTTG | -0.114 |
| TGAACGCA | 0.143 |
| TCGAGGAA | -0.0548 |
| ACGTGCCA | -0.135 |
| GGTTCTAA | 0.029 |
| AGCTAACC | -0.297 |
| AGAGACAT | 0.139 |
| CTGCCACA | -0.152 |
